Measurements collected from several papers.
Every numbered part comes from another study and shows a few of its results, in no order. Changes are numbered by the printed parent chain.

Block 1
Target: Interferon regulatory factor 5, full length, phosphomimetic (IRF5, Homo sapiens, UniProt Q13568-2, residues 1-514, K96S/S451D/S453D/S456D/S462D)
Technique: protein-binding microarray
Molecule type: double-stranded DNA, one strand shown
Matrix: in vitro
Tested at: 250 nM
Setting: 60-bp whole probe
Added: salmon DNA 0.4 mg/ml
Baseline: random background probes
Direction: higher = stronger binding
Quantity: log fluorescence
Shared flanks, not repeated: GCCTAGCAC … GTCTTGATTCGCTTGACGCTGCTG
TCACTTTCCTTACTTCCCACTGTGCTA: 2.11 z-score
GCCGGTATCGGGTTTCGGGACGTGCTA: 4.74 z-score
CATACAATTTCAGATTCCAGTGTGCTA: 1.12 z-score
TTTATTTTTTTTATTTATAAGTGCTAG: 1.55 z-score
GACGGTTTCGGGTTTCGGAACGTGCTA: 8.2 z-score
GTCGGACTGCTTATCCTGACGTGCTAG: -0.331 z-score
GACGGTTTCGGGACGGGGGACGTGCTA: 6.27 z-score
GATGGTTTCGACTTTCGGGACGTGCTA: 8.52 z-score
TCATTTCCATTTTCTAAAACTGTGCTA: 2.14 z-score
AGTCATCTCCAAAGTCAGCCAGTGCTA: -0.0409 z-score
GACGGTTTCGGGTTGCGGGACGTGCTA: 7.41 z-score
TTAGGACTGCTTATACTTTAGTGCTAG: 0.0589 z-score
GACGGTATCCTTATCCAGACGTGCTAG: -0.00367 z-score
TTAAGTATCGACTTTCGGTTAGTGCTA: 10.2 z-score
GTAAATCTTTTTCCCTATTAGTGCTAG: 1.28 z-score
TTAGGTCTCCTTATCCGTTAGTGCTAG: -0.196 z-score
TAAGGAGGCAGGGATGCTCCGTGCTAG: -0.497 z-score
GACGTTATCGGGTTTCGGGACGTGCTA: 4.34 z-score
TTAAGTTTCGGTCTCGGTTAGTGCTAG: 10.8 z-score
GTAGGTATCGGACTGGGTTAGTGCTAG: 1.34 z-score
AGTATGTTCACTATTTAAGGGTGCTAG: 0.356 z-score
GACGGTTTCGGTATGGGGACGTGCTAG: 9.51 z-score
GACGATCGCAGACTGGAGACGTGCTAG: -0.48 z-score
TTAGGACTGTGACTGGGTTAGTGCTAG: -0.452 z-score
TTAGGACTGGGACGGGGTTAGTGCTAG: -0.215 z-score

Block 2
Target: Prothrombin, mature alpha-thrombin (F2, Homo sapiens, UniProt P00734)
Technique: aptamer microarray, sandwich
Molecule type: DNA with 2'F-ANA
Matrix: in vitro
Tested at: 200 nM
Setting: whole 15-mer aptamer, many near background
Added: Cy3 exosite-II aptamer, 400 nM
Direction: higher = stronger binding
Quantity: mean fluorescence intensity
Oligonucleotide: GGTTGGTGTGGTTGG
2'F-ANA at 3 11 13 14 15: 604 a.u.
2'F-ANA at 2 3 5 8 9 12 13 15: 156 a.u.
2'F-ANA at 1 4 6 8 11 12 13 15: 163 a.u.
2'F-ANA at 1 2 4 6 8 11 13: 85.6 a.u.
2'F-ANA at 1 3 4 6 7 8 15: 244 a.u.
2'F-ANA at 1 2 3 5 7 8 9 11 12 13: 81.5 a.u.
2'F-ANA at 2 4 7 8 9 10 11 14: 64.3 a.u.
2'F-ANA at 1 2 5 6 8 12 13 14 15: 47.8 a.u.
2'F-ANA at 1 2 3 5 8 9 12 13: 86.8 a.u.
2'F-ANA at 1 4 9 10 12 14 15: 62.4 a.u.
2'F-ANA at 1 2 5 6 7 8 11 12: 90.3 a.u.
2'F-ANA at 1 3 4 5 6 7 8 9 11: 57 a.u.
2'F-ANA at 5 6 8 9 11 14 15: 57 a.u.
2'F-ANA at 6 8 11 13 14: 222 a.u.
2'F-ANA at 1 5 6 7 8 11 12: 107 a.u.
2'F-ANA at 1 8 9 10 11 12 13 14: 53.3 a.u.

Block 3
Target: Ras GTPase-activating protein-binding protein 1, full length (G3BP1, Homo sapiens, UniProt Q13283)
Chain of UniProt Q13283 (whole entry, looked up): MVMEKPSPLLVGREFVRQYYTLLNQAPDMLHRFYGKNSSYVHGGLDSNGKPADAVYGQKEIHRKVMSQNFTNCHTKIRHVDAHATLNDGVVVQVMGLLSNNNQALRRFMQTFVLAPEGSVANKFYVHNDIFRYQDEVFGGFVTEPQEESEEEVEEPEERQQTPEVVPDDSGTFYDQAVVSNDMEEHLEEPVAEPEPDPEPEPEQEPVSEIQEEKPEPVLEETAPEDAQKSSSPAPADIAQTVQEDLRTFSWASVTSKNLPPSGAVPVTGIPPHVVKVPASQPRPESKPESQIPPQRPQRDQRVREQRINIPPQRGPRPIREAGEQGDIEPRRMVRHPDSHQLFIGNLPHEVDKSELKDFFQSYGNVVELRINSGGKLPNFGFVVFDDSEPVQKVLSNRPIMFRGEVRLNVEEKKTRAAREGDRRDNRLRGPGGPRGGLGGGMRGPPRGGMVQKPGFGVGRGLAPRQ
Technique: RNA Bind-n-Seq
Molecule type: RNA
Matrix: in vitro
Tested at: 200 nM
Setting: whole 134-nt RNA, ends assumed
Added: 150 mM LiCl
Baseline: input library
Direction: higher = stronger binding
Quantity: log2 enrichment
Each molecule: 7-deaza-guanosine replaces G
Shared flanks, not repeated: GGGAGUUCUACAGUCCGACGAUC … UGGAAUUCUCGGGUGUCAAGG
AAGUCCUGUGCUACACAUCGUAUGUACCGAAUCGGGAAAAGGAAAAGGGGAAAAGGGAAAGUAUUAUGUUACGCCGUUCGGAUCUGCACU: 0.358
ACCAUGCAGGUGGGCAUCUUUGGGAAGUGGGGCAAGGGGGGGAUAGGGAGGGGGGUAACACUCUGGGAACAGGUGGUCCCAGGUCGUUUC: 0.34
UCCUCAAGUCCUGUGCUACACAUCGUAUGUACCGAAUCGGGUGGUGGGGUGGAAAGUAUUAUGUUACGCCGUUCGGAUCUGCACUUCCAG: 0.27
GAUUCCCUCCACAUGCUGCACGCGCAUCUCGCCCCCAGGGGCACUGCCUGGAAGAUUCAGGAGCCUGGGCGGCCUUCGCUUACUCUCACC: 2.22
UCCUGUGCUACACAUCGUAUGUACCGAAUCGGGGAGGGGAAAAAGGGGUUUUUUUGGGGAAAGUAUUAUGUUACGCCGUUCGGAUCUGCA: 0.894
CCUCAAGUCCUGUGCUACACAUCGUAUGUACCGAAUCGGGCGGGGCGGGCGGAAAGUAUUAUGUUACGCCGUUCGGAUCUGCACUUCCAG: -0.0101
UCCUGUGCUACACAUCGUAUGUACCGAAUCGGAAAAAGGGGAAAAAGGGGAAAAAGGGGAAAGUAUUAUGUUACGCCGUUCGGAUCUGCA: -0.161
GUCCUGUGCUACACAUCGUAUGUACCGAAUCGGGGAAAAAGGGGUGGGGAAAAAGGGGAAAGUAUUAUGUUACGCCGUUCGGAUCUGCAC: -0.231
CCUGUGCUACACAUCGUAUGUACCGAAUCGGGUUUUUUGGUUUUUUGGGGUUUUUUGGGGAAAGUAUUAUGUUACGCCGUUCGGAUCUGC: -0.346
GUCCUGUGCUACACAUCGUAUGUACCGAAUCGGGUUUUUGGGAAAAAAAGGGUUUGGGAAAGUAUUAUGUUACGCCGUUCGGAUCUGCAC: -2.78
UCCUGUGCUACACAUCGUAUGUACCGAAUCGGGGUUUUUGGUUUUUGGGGUUUUUGGGGAAAGUAUUAUGUUACGCCGUUCGGAUCUGCA: -0.289

Block 4
Target: CCNB3, cyclin fold, Cln2 fusion (human)
Technique: yeast growth competition, sequencing
Matrix: yeast
Setting: weak parent motif
Baseline: not given
Direction: higher = stronger binding
Quantity: normalised enrichment score
Starting sequence: KIF20B docking peptide (human); KRAKRKLYTSEIS; partner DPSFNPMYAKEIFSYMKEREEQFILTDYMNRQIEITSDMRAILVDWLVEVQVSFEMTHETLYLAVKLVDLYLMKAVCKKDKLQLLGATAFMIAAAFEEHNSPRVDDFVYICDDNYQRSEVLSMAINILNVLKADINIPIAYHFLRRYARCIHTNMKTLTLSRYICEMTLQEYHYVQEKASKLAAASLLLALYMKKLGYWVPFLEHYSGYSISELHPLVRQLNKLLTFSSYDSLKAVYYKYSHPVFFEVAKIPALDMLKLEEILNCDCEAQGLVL
Y8A: -0.253
T9A: -0.0393
K4A: 0.276
S13A: 0.0602
E11A: 0.284
R2A: -0.0221

Block 5
Target: Sal-like protein 4, full length isoform A (SALL4, Homo sapiens, UniProt Q9UJQ4, residues 1-1053)
Chain of UniProt Q9UJQ4 (whole entry, looked up): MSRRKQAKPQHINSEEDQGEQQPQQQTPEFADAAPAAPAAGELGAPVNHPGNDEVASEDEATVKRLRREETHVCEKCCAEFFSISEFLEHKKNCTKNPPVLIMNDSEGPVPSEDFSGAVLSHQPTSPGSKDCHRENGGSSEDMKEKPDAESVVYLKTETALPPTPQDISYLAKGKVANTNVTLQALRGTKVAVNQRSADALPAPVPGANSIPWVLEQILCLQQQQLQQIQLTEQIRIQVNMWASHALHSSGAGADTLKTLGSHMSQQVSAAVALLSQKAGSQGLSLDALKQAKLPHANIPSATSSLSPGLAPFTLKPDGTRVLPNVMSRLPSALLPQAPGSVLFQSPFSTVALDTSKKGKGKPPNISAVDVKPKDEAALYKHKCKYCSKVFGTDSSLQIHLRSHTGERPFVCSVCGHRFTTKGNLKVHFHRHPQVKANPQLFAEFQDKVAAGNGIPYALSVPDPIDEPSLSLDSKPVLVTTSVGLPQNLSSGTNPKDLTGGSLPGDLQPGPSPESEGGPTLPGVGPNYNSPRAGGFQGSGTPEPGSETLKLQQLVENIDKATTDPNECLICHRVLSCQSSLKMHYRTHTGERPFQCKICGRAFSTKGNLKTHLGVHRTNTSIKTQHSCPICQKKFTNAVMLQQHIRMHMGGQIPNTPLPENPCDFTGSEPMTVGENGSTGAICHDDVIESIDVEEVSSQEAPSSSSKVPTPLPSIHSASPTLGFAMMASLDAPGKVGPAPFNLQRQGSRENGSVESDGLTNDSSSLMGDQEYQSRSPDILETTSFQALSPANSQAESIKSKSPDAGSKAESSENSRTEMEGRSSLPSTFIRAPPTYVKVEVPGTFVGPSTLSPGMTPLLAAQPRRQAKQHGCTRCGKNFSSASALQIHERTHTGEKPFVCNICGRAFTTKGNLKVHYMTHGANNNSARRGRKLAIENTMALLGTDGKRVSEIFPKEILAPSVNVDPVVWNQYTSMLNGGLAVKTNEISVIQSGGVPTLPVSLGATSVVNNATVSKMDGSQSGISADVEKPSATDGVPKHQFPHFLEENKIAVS
Technique: universal PBM
Molecule type: double-stranded DNA, one strand shown
Matrix: in vitro
Tested at: 600 nM
Setting: 8-mer, flanks averaged, mean of replicates
Direction: higher = stronger binding
Quantity: E-score
AATGAATC: 0.16
ATTCAAAA: 0.227
CTCAATAA: 0.27
CCAACACC: -0.239
CCTCAGGA: -0.183
CCTGTATA: 0.151
ACCTTGAG: 0.0712
AAGGGAAT: 0.0936
CATCCCCG: -0.286
AGGCTCAC: -0.258
AGGCTCTC: -0.172
AAGCCAAC: 0.0957
AGACGCCA: -0.162
CACGACCA: -0.133
AAACAGGG: -0.0817
CTCCACGA: -0.147
CAAGGAGA: -0.022
GATGTAGC: -0.132
GAATGTAC: -0.0417
CCAAATCG: 0.104

Block 6
Target: Histone acetyltransferase KAT6A, winged helix 2, GST fusion (KAT6A, Homo sapiens, UniProt Q92794, residues 85-181)
Technique: protein binding microarray
Molecule type: double-stranded DNA, one strand shown
Matrix: in vitro
Tested at: not given
Setting: 8-mer, flanks averaged, mean of 2 arrays, mostly near background
Baseline: not given
Direction: higher = stronger binding
Quantity: E-score
Construct (chain): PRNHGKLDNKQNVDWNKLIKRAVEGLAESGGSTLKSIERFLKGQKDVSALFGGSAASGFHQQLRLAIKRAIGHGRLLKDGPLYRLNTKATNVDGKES
ACCATCGT: -0.144
GATCGGAC: 0.0868
CCGACTGA: 0.104
CGGTGAAA: 0.0774
GAAATCTC: -0.0285
TTGCAAAA: 0.0191
AATCTAGT: 0.105
CAAGGAGC: -0.038
AGCTTTAG: -0.0301
CACCCAGA: 0.109
GAAAGCCC: 0.0262
AAGACGTC: -0.17
AGTCAAAA: 0.0545
AGATAAGG: 0.0347
CAAAGCCG: 0.103
CGAAATAC: 0.0176
CGCTAGAC: -0.0412
ACAACATC: -0.0367
ACGCTGAG: -0.126
ACGTTTAA: -0.0934
AAGACCGC: 0.0897
ATGTCTTG: -0.101
AATGGCGC: -0.084
TAGGGTAA: -0.0532
AGAGAGAT: 0.111

Repeated from above (block 5):
AATGAATC: 0.16
ATTCAAAA: 0.227
CTCAATAA: 0.27
CCAACACC: -0.239
CCTCAGGA: -0.183
CCTGTATA: 0.151
ACCTTGAG: 0.0712
AAGGGAAT: 0.0936
CATCCCCG: -0.286
AGGCTCAC: -0.258
AGGCTCTC: -0.172
AAGCCAAC: 0.0957
AGACGCCA: -0.162
CACGACCA: -0.133
AAACAGGG: -0.0817
CTCCACGA: -0.147
CAAGGAGA: -0.022
